Assay results from different studies.
Numbers after ± are the reported error.
Cell line: HeLa

| SMILES | assay | test system | setting | scale | quantity | result |
| --- | --- | --- | --- | --- | --- | --- |
| C[C@@H]1NC(=O)[C@H](CCCNC(=N)N)NC(=O)[C@H](Cc2ccc3ccccc3c2)NC(=O)[C@@H]2CCCCN2C(=O)[C@@H]([C@H](C)OP(=O)(O)O)NC(=O)CN(C)C(=O)[C@@H](C)NC(=O)c2cc3cc(c2)C(=O)NC[C@H](NC(=O)[C@@H](C)NC1=O)C(=O)N[C@@H](Cc1ccccc1)C(=O)N[C@@H](Cc1ccc2ccccc2c1)C(=O)N[C@@H](CCCNC(=N)N)C(=O)N[C@@H](CCCNC(=N)N)C(=O)N[C@@H](CCCNC(=N)N)C(=O)N[C@@H](CCCNC(=N)N)C(=O)N[C@H](C(=O)N[C@@H](CCCCN)C(N)=O)CNC3=O | cell growth, MTT |  | 20 µM, 3 days |  | inhibition | 45% |
| CC1=[N+]2N=C(c3ccccc3)[O][Pd-2]2([Cl])[O+]=C2Oc3ccccc3C=C21 (centres unmarked) | cytotoxicity, MTT |  | 48 h | baseline: WI-38 over HeLa IC50 | selectivity index | 4.62 |
| CC(C)(C)c1cc2c(O)c(c1)Cc1cc(C(C)(C)C)cc(c1OCC(=O)Nc1ccccn1)Cc1cc(C(C)(C)C)cc(c1O)Cc1cc(C(C)(C)C)cc(c1OCC(=O)Nc1ccccn1)COC2 | cell growth or viability, MTT |  | 15 µM, 72 h |  | inhibition | 28% |
| O=C(Cc1ccc(-c2ccc(OCCN3CCOCC3)cc2)cn1)NCc1ccccn1 | cell growth or viability, CCK-8 |  | 48 h |  | IC50 | > 4 µM |
| CC(C)CCOc1cc(C(=O)C[n+]2ccn(Cc3ccccc3)c2)c(OCCC(C)C)c2ccccc12 | qRT-PCR, refers to: PCNA mRNA |  | 10 µM | baseline: control | inhibition | 71.7% |
| COc1ccc(CCC(=O)Nc2nc3ccc(Cl)cc3s2)cc1OC | shotgun lipidomics, refers to: CE 16:0 and 18:1 |  | 10 µM, 18 h |  | cholesteryl ester level | decreased |
| CC(=O)N[C@H](CCCNC(=N)N)C(=O)N[C@H](CCCCN)C(=O)N[C@H](Cc1ccc(O)cc1)C(=O)N[C@H](CS)C(N)=O |  |  | concentration not given, 24 h |  | decrease in EdU-positive cells | ~50% |
| O=C(O)c1ccccc1-c1c2ccc(=O)cc-2oc2cc(O)ccc12 | resazurin |  | concentration not given |  | viability | no effect |
| Cc1cc(/C=C2\CN(C(C)C)C/C(=C\c3cc(C)c(O)c(C)c3)C2=O)cc(C)c1O | PI flow cytometry |  | 10 µM, 24 h |  | G2/M phase cells | 25.3 ± 2.07% |
| C=C1C(=O)OC2C=C(C)CCC=C(C(=O)OC(C)C(C)(O)C(=O)OC3C(OC(C)=O)C(C(=O)OC)=CCCC(C)=CC4OC(=O)C(=C)C43)CC(OC(=O)C(C)=CC)C12 (centres unmarked) | PI staining flow cytometry |  | 3 µM, 48 h |  | sub-G1 cells | 10% |
| CC(C)[C@@H]1NC(=O)[C@H](Cc2ccc(OP(=O)(O)O)cc2)NC(=O)[C@H](CCCNC(=N)N)NC(=O)[C@H](CCCNC(=N)N)NC(=O)[C@@H]2CCCN2C(=O)[C@H]2CCCN2C(=O)[C@@H](C)NC(=O)[C@H](C)NC(=O)[C@H](Cc2ccccc2)NC(=O)[C@H](CC(N)=O)NC1=O | flow cytometry | NF-labelled via miniPEG-Lys at Asn | 5 µM, 2 h | baseline: CPP9 cyclo(fΦRrRrQ) as 100% | cytosolic entry efficiency | 2% |
| COc1cc([C@@H]2c3cc4c(cc3[C@@H](OCc3cc(-c5cc(C#N)cc(C#N)c5)no3)[C@H]3COC(=O)C23)OCO4)cc(OC)c1OC (some centres unmarked) | cell growth or viability, SRB |  | 48 h |  | GI50 | 1.28 µM |
| COc1cc(C(=O)c2[nH]c(N)nc2-c2cccs2)cc(OC)c1OC | immunofluorescence, refers to: microtubules |  | 200 nM, 2 h |  | reduction of microtubule intensity | 33 ± 8% |
| CC[C@H](C(=O)N1CCCC[C@H]1C(=O)O[C@H](CCc1ccc(OC)c(OC)c1)c1cccc(OCC(=O)NCCC(=O)N2CCN(CCCOc3cc4c(Nc5ccc(F)c(Cl)c5)ncnc4cc3OC)CC2)c1)c1cc(OC)c(OC)c(OC)c1 | annexin V/PI flow cytometry |  | 1 µM, 48 h, DMSO 12.4% |  | apoptotic and dead cells | 36.4% |
| CC(C)(C)c1cc2c(O)c(c1)Cc1cc(C(C)(C)C)cc(c1OCC(=O)Nc1cncc3ccccc13)Cc1cc(C(C)(C)C)cc(c1O)Cc1cc(C(C)(C)C)cc(c1OCC(=O)Nc1cncc3ccccc13)COC2 | cell growth or viability, MTT |  | 15 µM, 72 h |  | inhibition | 82% |
| O=[N+]([O-])c1ccc(/C=N/NC(=S)Nc2ccccc2)s1 | altered cell morphology, microscopy |  | confluent cultures |  | cytotoxic concentration | ≥ 20 µM |
| O=c1c(/C=N/NC(=S)N/N=C/c2cc(Cl)ccc2O)coc2ccccc12 | DCFDA flow cytometry |  | 0.1 µM, 24 h | baseline: untreated cells | reduction in H2O2 level | ~15% |

Repeated from above:
| SMILES | assay | test system | setting | scale | quantity | result |
| --- | --- | --- | --- | --- | --- | --- |
| Cc1cc(/C=C2\CN(C(C)C)C/C(=C\c3cc(C)c(O)c(C)c3)C2=O)cc(C)c1O | PI flow cytometry |  | 10 µM, 24 h |  | G2/M phase cells | 25.3 ± 2.07% |
| C=C1C(=O)OC2C=C(C)CCC=C(C(=O)OC(C)C(C)(O)C(=O)OC3C(OC(C)=O)C(C(=O)OC)=CCCC(C)=CC4OC(=O)C(=C)C43)CC(OC(=O)C(C)=CC)C12 (centres unmarked) | PI staining flow cytometry |  | 3 µM, 48 h |  | sub-G1 cells | 10% |
